Measured values gathered from unrelated publications.
Protocols differ between the studies behind these lines. ± gives the spread as reported.
Sequence of UniProt Q12879 (whole entry, looked up): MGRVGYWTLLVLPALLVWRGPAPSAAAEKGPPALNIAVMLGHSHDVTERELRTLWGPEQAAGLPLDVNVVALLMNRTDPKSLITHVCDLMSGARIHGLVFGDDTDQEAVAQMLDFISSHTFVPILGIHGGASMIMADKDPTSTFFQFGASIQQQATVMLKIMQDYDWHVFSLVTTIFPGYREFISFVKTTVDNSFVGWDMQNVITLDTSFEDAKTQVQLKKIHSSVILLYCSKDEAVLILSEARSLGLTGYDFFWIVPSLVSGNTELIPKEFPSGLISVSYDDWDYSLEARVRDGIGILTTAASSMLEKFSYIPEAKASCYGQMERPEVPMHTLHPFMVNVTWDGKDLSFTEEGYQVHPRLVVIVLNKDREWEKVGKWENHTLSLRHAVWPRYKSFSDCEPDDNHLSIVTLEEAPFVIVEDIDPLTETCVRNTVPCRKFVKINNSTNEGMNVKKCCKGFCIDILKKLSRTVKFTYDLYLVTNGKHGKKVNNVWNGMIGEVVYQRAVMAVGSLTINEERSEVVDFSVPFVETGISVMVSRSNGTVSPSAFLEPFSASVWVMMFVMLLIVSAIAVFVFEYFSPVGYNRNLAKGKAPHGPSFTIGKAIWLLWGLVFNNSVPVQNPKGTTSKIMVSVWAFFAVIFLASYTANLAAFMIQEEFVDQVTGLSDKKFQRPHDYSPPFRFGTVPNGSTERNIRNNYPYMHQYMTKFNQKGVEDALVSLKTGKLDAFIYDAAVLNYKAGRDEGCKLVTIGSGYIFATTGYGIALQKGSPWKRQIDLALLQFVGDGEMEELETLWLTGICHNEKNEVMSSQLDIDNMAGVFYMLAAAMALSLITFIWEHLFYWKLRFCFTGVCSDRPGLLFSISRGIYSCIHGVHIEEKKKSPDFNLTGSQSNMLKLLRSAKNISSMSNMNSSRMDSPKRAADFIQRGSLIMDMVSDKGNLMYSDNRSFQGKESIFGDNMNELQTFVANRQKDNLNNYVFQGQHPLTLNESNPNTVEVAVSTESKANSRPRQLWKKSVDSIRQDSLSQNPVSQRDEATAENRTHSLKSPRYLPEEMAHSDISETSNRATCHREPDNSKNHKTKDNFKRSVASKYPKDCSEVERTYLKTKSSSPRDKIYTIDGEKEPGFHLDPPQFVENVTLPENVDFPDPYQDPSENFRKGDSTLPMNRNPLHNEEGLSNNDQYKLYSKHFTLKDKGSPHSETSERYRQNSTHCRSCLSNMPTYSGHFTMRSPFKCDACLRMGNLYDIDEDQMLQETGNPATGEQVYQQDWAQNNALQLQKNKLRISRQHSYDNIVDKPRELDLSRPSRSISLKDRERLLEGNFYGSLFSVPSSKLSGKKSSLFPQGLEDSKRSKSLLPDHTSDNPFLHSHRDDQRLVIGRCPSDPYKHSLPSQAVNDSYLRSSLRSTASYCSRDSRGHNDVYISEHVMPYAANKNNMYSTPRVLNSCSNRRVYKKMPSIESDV
Sequence of UniProt Q460N5 (whole entry, looked up): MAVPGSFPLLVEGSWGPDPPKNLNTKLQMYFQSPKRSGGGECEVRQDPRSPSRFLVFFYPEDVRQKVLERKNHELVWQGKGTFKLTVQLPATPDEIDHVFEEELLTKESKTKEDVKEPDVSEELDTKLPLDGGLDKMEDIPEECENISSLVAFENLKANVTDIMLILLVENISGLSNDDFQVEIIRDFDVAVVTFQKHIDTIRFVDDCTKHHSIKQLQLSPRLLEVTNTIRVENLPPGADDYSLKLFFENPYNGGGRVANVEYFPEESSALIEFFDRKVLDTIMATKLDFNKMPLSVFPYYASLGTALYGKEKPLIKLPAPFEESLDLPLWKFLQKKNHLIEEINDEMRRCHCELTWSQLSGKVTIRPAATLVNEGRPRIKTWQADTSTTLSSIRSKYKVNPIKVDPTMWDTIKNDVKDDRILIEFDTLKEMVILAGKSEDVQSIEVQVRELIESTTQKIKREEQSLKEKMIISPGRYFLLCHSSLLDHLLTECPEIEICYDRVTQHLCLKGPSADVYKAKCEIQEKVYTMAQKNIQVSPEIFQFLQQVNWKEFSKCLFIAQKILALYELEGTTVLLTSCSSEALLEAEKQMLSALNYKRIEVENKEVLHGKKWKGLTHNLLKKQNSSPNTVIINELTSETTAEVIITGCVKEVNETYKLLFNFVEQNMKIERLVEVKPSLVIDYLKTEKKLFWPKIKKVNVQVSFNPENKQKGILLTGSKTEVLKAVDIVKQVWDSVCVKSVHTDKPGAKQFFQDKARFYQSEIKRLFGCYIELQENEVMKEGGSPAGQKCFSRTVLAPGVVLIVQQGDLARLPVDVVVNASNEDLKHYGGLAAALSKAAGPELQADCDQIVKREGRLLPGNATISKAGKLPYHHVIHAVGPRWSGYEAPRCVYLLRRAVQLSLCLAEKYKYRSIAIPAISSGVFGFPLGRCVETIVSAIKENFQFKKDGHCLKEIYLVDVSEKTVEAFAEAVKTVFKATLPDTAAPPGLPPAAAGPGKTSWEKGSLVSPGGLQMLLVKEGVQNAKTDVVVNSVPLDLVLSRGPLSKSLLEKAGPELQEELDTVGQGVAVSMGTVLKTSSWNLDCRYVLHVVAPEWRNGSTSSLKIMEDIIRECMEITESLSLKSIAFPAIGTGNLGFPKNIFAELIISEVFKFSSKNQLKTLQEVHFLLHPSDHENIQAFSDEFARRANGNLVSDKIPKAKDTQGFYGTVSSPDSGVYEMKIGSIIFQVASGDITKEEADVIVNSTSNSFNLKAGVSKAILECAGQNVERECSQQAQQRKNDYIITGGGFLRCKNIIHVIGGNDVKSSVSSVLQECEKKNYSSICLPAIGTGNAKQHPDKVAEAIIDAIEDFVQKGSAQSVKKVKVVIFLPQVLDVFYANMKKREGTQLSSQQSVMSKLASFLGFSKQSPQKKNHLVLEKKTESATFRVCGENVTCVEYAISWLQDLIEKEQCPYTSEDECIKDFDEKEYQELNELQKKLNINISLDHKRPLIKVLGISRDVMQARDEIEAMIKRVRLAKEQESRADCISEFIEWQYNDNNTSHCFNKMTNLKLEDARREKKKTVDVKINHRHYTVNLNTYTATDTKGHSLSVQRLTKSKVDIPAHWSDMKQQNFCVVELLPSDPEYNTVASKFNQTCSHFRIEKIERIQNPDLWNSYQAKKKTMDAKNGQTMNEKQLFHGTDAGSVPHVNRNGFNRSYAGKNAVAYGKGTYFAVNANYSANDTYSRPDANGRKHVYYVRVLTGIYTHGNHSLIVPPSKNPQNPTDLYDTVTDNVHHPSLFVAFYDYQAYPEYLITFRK

| Substance | tested on | assay | system | setting | measurement | value |
| --- | --- | --- | --- | --- | --- | --- |
| (+)-catechin gallate |  | transwell, HBSS | apical compartment, no cells | 4 h, pH 7.4 | mass recovered | not detected |
| deucravacitinib |  |  | human | concentration not given, multiple dose, all doses | fatigue incidence | 2.2% |
| maraviroc |  |  | black CYP3A5 intermediate metabolizers, plasma | 300 mg twice daily | AUC(0-12h) | 2950 ng·h/mL |
| ADP-ribose | PARP14 (Homo sapiens, UniProt Q460N5) | isothermal titration calorimetry |  | no inhibitor | Kd | 7.8 µM |
| deucravacitinib |  |  | healthy Chinese subjects | dose not given | subjects with related TEAE | 50% |
| β-melibiose | Frizzled-8 (Xenopus laevis, UniProt Q91719) | biolayer interferometry |  | 25 °C, immobilised biotinylated carbohydrate | Kd | 0.726 µM |
| semaglutide |  | item: probably related to drug | human, safety analysis set | concentration not given, 32 weeks, run-in | participants with adverse events | 50% |
| vorinostat glucuronide |  |  | patients, plasma | oral, 100 mg vorinostat three times daily, 14 days, with: idarubicin | Cmax | 2160 nM |
| α-poly-L-aspartic acid |  |  | Tris-Cl buffer | pH 7.5, room temperature | thermodynamic solubility | > 1000 mg/mL |
| D-AP5 | Glutamate NMDA receptor; GRIN1/GRIN2A (Homo sapiens, UniProt Q05586+Q12879) | ion current, antagonist, whole-cell patch clamp | HEK-293T expressing Glutamate NMDA receptor; GRIN1/GRIN2A | concentration not given | inhibition | 98.1 ± 0.02% |
| chicoric acid |  | UPLC | broiler chicken, plasma | oral gavage, 20 mg/kg | Cmax | 73.4 ± 39.3 ng/mL |
| liquiritin apioside | Prothrombin (F2, Homo sapiens, UniProt P00734) | enzyme activity, inhibitor, fluorogenic |  | 20 min, 37 °C, with: Z-GGR-AMC 50 µM | IC50 | > 100 µM |
